Measurements from different studies.
Each line is one published result; not all experiments were run side by side. Several values in a cell are separate wells, animals, samples, runs or records. ± gives the spread as reported.
Organism: Salmonella typhimurium

Structure (SMILES)	assay	test system	setting	scale	endpoint	result
CNC(=O)c1c(N(C)N=O)ncn1C	plate incorporation	TA1537, water	50 µg/plate, without S9	–	revertant colonies per plate	9.7 ± 1
Fc1ccc(C2=CCNCC2)cc1	genotoxicity, SOS/umu test	TA1535/pSK1002	0.016 mg/mL, 4 h, without S9, full range	–	induction factor	0.9
O=C(O)CCCOc1ccc(F)cc1-c1cc(-c2ccccc2C(F)(F)F)n(-c2ccccc2)n1	Ames test	TA1535	concentration not given, without S9 metabolic activation	–	growth-inhibiting concentration	≥ 625 µg/plate
OC(CCN1CC=C(c2ccc(F)cc2)CC1)c1ccc(F)c2ccccc12 (stereo not shown)	genotoxicity, SOS/umu test	TA1535/pSK1002	0.25 mg/mL, 4 h, with S9, lower range	–	induction factor	0.3
Nc1ccc2cc3ccccc3cc2c1	–	TA1535	5 µg/plate, added: rat liver S9	relative to: vehicle control	revertant fold increase	25.4
CC(C)N(N=O)C(C)C	mutagenicity, Ames plate incorporation	TA98	1500 µg/plate, without S9, methanol	–	revertant colonies per plate	31.3 ± 8
COc1cccc(-c2n[nH]c(SCc3ccccn3)n2)c1OC	Ames test, plate incorporation	TA100	0.50 mg/plate, without S9	–	revertant colonies per plate	111
N#C[C@@]1(n2ccc(N)nc2=O)O[C@H](CO)[C@@H](O)[C@H]1O	–	TA1535	100 µM, without S9	–	viability	101%
O=NN1CCN(C2CCCC2)CC1	mutagenicity, Ames plate incorporation	TA1537	500 µg/plate, 3 d, without S9, methanol	–	revertant colonies per plate	11.7 ± 2
O=[N+]([O-])c1ccc2c(c1)Cc1ccccc1-2	–	TA98	1 µg/plate, added: without S9	–	mean revertants per plate	193 revertants/plate
Cc1cc(C(=O)NC(C)(C)COc2cccc3c2C(N)=NS(=O)(=O)N3)cc(C)n1	Ames test, initial	TA98	500 µg/plate, added: rat liver S9	relative to: solvent control	revertant ratio	1
CC(=O)N1CCC(C(=O)N2CCN3C(=O)c4cc(-c5ccccc5)ccc4NC(=O)C3C2)CC1 (stereo not shown)	–	TA1535	50 µg/plate, added: rat liver S9	–	revertants per plate	16.5
N#Cc1ccnc(Oc2nn([C@H]3C[C@H](F)C3)c3ncnc(N)c23)c1	mini Ames test	TA98 and TA100	concentration not given, with and without S9, negative	–	mutagenicity	negative
COCCN(CCOC)N=O	mutagenicity, Ames plate incorporation	TA100	150 µg/plate, 3 d, without S9, methanol	–	revertant colonies per plate	136 ± 24
O=[N+]([O-])c1ccc(N2CCN(CCC(O)c3ccc(F)cc3)CC2)c(C(F)(F)F)c1 (stereo not shown)	SOS response, SOS/umu test	TA1535/pSK1002, TGA medium	0.001 mg/mL, 4 h, added: rat liver S9	relative to: untreated	induction factor	1.3
CN(C)c1ccc(N=NS(=O)(=O)[O-])cc1.[Na+]	Ames test	TA97a	10 µg/well, without S9	–	revertant colonies	960 colonies/well and 896 colonies/well and 928 colonies/well
O=[N+]([O-])c1ccc(NC2CCNCC2)c(C(F)(F)F)c1	genotoxicity, SOS/umu test	TA1535/pSK1002	0.008 mg/mL, 4 h, with S9, full range	–	induction factor	0.7
CN(N=O)c1ccc(F)cc1	mutagenicity, Ames plate incorporation	TA100	500 µg/plate, 3 d, without S9, methanol	–	revertant colonies per plate	138 ± 4
Nc1ccc2cc3ccccc3cc2c1	Ames test, confirmatory	TA98	1.0 µg/plate, added: rat liver S9	relative to: solvent control	revertant ratio	10.6
Nc1c2ccccc2nc2ccccc12	preincubation Ames test	TA1537	100 µg per plate	–	revertant colonies per plate	1000
CN(CC(C)(C)C)N=O	mutagenicity, Ames plate incorporation	TA1537	5000 µg/plate, without S9, methanol	–	revertant colonies per plate	15 ± 10
O=[N+]([O-])c1ccc(N2CCC(NCCC(O)c3ccc(F)c4ccccc34)CC2)c(C(F)(F)F)c1 (stereo not shown)	SOS response, SOS/umu test	TA1535/pSK1002	0.001 mg/mL, 4 h, without S9 activation	–	umu induction factor	0.35

A few entries again:
Structure (SMILES)	assay	test system	setting	scale	endpoint	result
CN(C)c1ccc(N=NS(=O)(=O)[O-])cc1.[Na+]	Ames test	TA97a	10 µg/well, without S9	–	revertant colonies	960 colonies/well and 896 colonies/well and 928 colonies/well
O=[N+]([O-])c1ccc2c(c1)Cc1ccccc1-2	–	TA98	1 µg/plate, added: without S9	–	mean revertants per plate	193 revertants/plate
CN(CC(C)(C)C)N=O	mutagenicity, Ames plate incorporation	TA1537	5000 µg/plate, without S9, methanol	–	revertant colonies per plate	15 ± 10
